Published values collected from several papers.
Parts stem from different laboratories: compare values within a part only.

Set 1 — technique: protein-binding microarray; form: double-stranded DNA, one strand shown; medium: in vitro; concentration: 2200 nM top; notes: 60-bp whole probe; added: salmon DNA 0.4 mg/ml; reference: random background probes; direction: higher = stronger binding
Target: Interferon regulatory factor 7, full length, phosphomimetic (IRF7, Homo sapiens, UniProt Q92985, residues 1-503, S471D/S472D/S475D/S476D/S477D/S483D/S484D/S487D)
UniProt Q92985, sequence (whole entry, unmodified, looked up): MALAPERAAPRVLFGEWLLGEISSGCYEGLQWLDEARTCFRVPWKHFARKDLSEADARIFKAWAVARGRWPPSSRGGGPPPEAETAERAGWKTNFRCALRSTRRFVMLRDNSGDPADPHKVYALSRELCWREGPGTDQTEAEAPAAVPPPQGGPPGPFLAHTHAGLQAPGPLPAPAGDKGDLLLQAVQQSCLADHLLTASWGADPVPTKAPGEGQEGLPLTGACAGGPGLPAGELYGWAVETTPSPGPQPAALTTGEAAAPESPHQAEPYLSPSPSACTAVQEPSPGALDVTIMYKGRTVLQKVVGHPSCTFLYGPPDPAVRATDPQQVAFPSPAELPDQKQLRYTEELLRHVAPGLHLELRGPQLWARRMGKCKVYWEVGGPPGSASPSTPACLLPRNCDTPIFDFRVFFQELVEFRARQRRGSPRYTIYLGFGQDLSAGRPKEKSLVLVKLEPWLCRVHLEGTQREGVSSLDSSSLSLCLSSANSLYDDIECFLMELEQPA
Sequence	fitted relative affinity
GCCTAGCACGTAGTAATGAATATAATACCGTGCTAGGTCTTGATTCGCTTGACGCTGCTG	-0.392 z-score
GCCTAGCACTTAGGTTCCCTTTTCCTTCAGTGCTAGGTCTTGATTCGCTTGACGCTGCTG	3.01 z-score
GCCTAGCACGACGGTATCGACTATTGGGACGTGCTAGTCTTGATTCGCTTGACGCTGCTG	-0.0698 z-score

Set 2 — technique: protein binding microarray; form: double-stranded DNA, one strand shown; medium: in vitro; concentration: not given; reference: not given; direction: higher = stronger binding
Target: Histone acetyltransferase KAT6A, winged helix 2, GST fusion (KAT6A, Homo sapiens, UniProt Q92794, residues 85-181)
Notes: 8-mer, flanks averaged, mean of 2 arrays, mostly near background
Residues (chain): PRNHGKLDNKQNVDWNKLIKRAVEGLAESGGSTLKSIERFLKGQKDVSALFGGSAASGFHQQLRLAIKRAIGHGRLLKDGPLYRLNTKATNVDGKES
Sequence	E-score
CCTAGTAA	-0.0317
CAGGCATG	0.0485
AGGTTTGC	0.0143

Set 3 — technique: protein-binding microarray; form: double-stranded DNA, one strand shown; medium: in vitro; concentration: not given; direction: higher = stronger binding
Target: Transcription factor SOX-2, HMG box (SOX2, Homo sapiens, UniProt P48431, residues 19-118)
UniProt P48431, sequence (19-118, looked up): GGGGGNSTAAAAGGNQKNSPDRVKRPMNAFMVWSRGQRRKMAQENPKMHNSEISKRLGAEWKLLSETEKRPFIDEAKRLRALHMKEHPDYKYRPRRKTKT
Notes: k-mer, scored over probes, only values ≥0.25
Sequence	E-score
CAATTAC	0.295
AATTCAA	0.46
CAGACAA	0.331

Single results of other studies
Substance	target	assay	system	conditions	scale	measurement	value
PhoQ, residues 284 288 289 292 302 303 SSCLAV	PhoP, residues 12 14 15 18 19 LHATL (Escherichia coli, UniProt P23836)	Sort-seq, measured: YFP reporter	E. coli	PhoQ-PhoP variant library, added: 10 µM Mg2+	reference: high Mg2+ state, higher = stronger signaling	fold induction	3.59
